Assay results of several laboratories.
Lines come from different studies, so protocols differ. Values joined by “and” are separate records of one study, mostly repeats; a detail may differ.
Target: Serine/threonine-protein kinase 16 (STK16, Homo sapiens, UniProt O75716)

SMILES | assay | test system | setting | scale | endpoint | result
Nc1ncc(-c2cc(-c3cnn(CC(F)(F)F)c3)ncc2F)nc1C(=O)NC1CNCC(F)C1 (centres unmarked) | enzyme activity | – | 1 µM | relative to: DMSO control | remaining activity | 91.4%
C=CC(=O)Nc1cccc(-c2cnc3[nH]cc(C(=O)NC(C)(C)C)c3n2)c1 | enzyme activity, inhibitor | – | 0.1 µM | – | inhibition | 2%
NC(=O)[C@@H](O)C[C@H]1CCc2sc3ncnc(O[C@H]4CC[C@H](N5CCOCC5)CC4)c3c21 | enzyme activity, inhibitor | – | 10 µM | – | inhibition | 4%
C=CC(=O)Nc1cc(-c2nn(C3CCN(CCNC(=O)[C@H](C)CCC45CC6CC(CC(C6)C4)C5)CC3)c3ncnc(N)c23)ccc1Oc1ccccc1 | inhibitor, KiNativ profiling | biochemical | 2 µM | – | inhibition | 34.1%
Cc1ccc(C(=O)Nc2ccc(CN3CCN(C)CC3)c(C(F)(F)F)c2)cc1C#Cc1cnc2cccnn12 | target engagement, NanoBRET | human cells | – | – | Hill slope | -0.559
COc1c(Cl)cccc1Nc1c(-c2ccncc2C#C[C@@]2(C)CCCN2C(=O)/C=C/CN(C)C)[nH]c2c1C(=O)NCC2 | binding, competition with immobilised ligand | – | 3 µM | – | remaining binding | 84%
Cc1cccc(O[C@H]2CCC[C@@H](C(C)CNCc3ccncc3)C2)c1 (relative stereo) | enzyme activity, inhibitor | – | 1 µM | – | inhibition | 0%
CCN1CCN(Cc2ccc(C(=O)Nc3ccc(C)c(NCc4cnc5[nH]ccc5c4OC)c3)cc2C(F)(F)F)CC1 | binding, competition with immobilised ligand | – | 1 µM | – | remaining binding | 100%
CNC(=O)C1CCN(c2cc(C)c(F)cc2NC(=O)c2ccc(-c3cc(O)ccc3C)c(C)c2)CC1 | binding, competition with immobilised ligand | – | 1 µM | – | remaining binding | 100%
COc1cc(Nc2nc(C)cc(-c3cnn4nc(OC)ccc34)n2)cc(C(F)(F)F)c1 | binding, competition with immobilised ligand | – | 1 µM | – | remaining binding | 81%
COCC12C(=O)NC3C4(C(OC)CC1O)C1CC5(O)C(OC)C(O)C(OC(C)=O)(C1C5OC(=O)c1ccccc1)C3(O)C(OC)C24 (centres unmarked) | kinase activity, inhibitor, ProQinase kinase profiling | – | 25 µM | relative to: control | remaining activity | 91% and 98%
CN1CCN(Cc2ccc(-c3ccc(CO[C@H]4CCC[C@@H]4NC(=O)c4cc(-c5cnn(C)c5)cnc4N)cc3)cc2)CC1 | enzyme activity, inhibitor | – | 0.1 µM | – | inhibition | -7%
Cc1cnc2nc1Nc1cccc(c1)COC/C=C/COCc1cc(ccc1OCCN1CCOCC1)N2 | binding, competition with immobilised ligand | – | 0.1 µM | – | remaining binding | 16%
CC(C)=CC1OC(C)(C)C2C=C3C(=O)C(Cl)=CC(O)C3C3C(O)C4OC4C(=O)C132 (centres unmarked) | cell-free assay, competition with immobilised ligand | – | 10 µM | – | remaining binding | 95%

A few entries again:
SMILES | assay | test system | setting | scale | endpoint | result
NC(=O)[C@@H](O)C[C@H]1CCc2sc3ncnc(O[C@H]4CC[C@H](N5CCOCC5)CC4)c3c21 | enzyme activity, inhibitor | – | 10 µM | – | inhibition | 4%
